Published values collected from several papers.
Lines come from different studies, so protocols differ. Several values in a cell are separate wells, animals, samples, runs or records. ± gives the spread as reported. ≈ marks a conversion by molar mass, not a printed value.

Compound = Cc1cnc(Nc2ccc(C3CCN(C)CC3)c(F)c2)nc1Nc1ccc(Cl)c(NS(=O)(=O)C(C)(C)C)c1; tested on = MM1.S; test = item: MYC; conditions = 3 µM, 6 h; scale = reference: vehicle; measurement = protein reduction; result = ~92%
Compound = CNS(=O)(=O)Nc1nccc(Cc2c(C)c3ccc(Oc4ncccc4F)cc3oc2=O)c1F; tested on = NCI-H2291; test = cell viability; conditions = 7 days; measurement = IC50; result = 24.6 nM
Compound = CCCCN1C(=O)c2cccc3c(NCCCN4CCOCC4)ccc(c23)C1=O; tested on = BHK-21; test = confocal microscopy, item: lysosome colocalisation; conditions = 0.2 µM, with: 0.3 µM LysoTracker Deep Red; measurement = Pearson's correlation coefficient; result = 0.89 ± 0.04
Compound = Cn1ncc2cc(-c3cncc(Cl)c3N3CCC4(CCNC4=O)CC3)ccc21; tested on = LS174T; test = gene expression, microarray, item: KLF6 mRNA; conditions = concentration not given, 4 h; scale = reference: untreated cells; measurement = log2 fold change; result = 2.54
Compound = CCN(C(=O)c1cc(F)ccc1Oc1nncnc1N1CCC2(C1)CN([C@H](CCCN(C)CCOC)C(C)C)C2)C(C)C; tested on = Panc1005; test = cell growth or viability; conditions = 72 h; measurement = GI50; result = > 10000 nM
Compound = CN1CCCNC(=O)c2cccc(c2)C(=O)NCCCN(C)CCCNc2cccc3c2C(=O)c2cccc(c2C3=O)NCCC1; tested on = SAS; test = RNA-Seq, item: ENDOV mRNA; conditions = 1 µM, 6 h; scale = reference: untreated cells; measurement = log2 fold change; result = 1.24
Compound = Cc1ncsc1-c1ccc(C(C)NC(=O)C2CC(O)CN2C(=O)C(NC(=O)CCCCCCCCCCN2CCCC(Nc3ncc(Cl)c(Nc4ccccc4S(=O)(=O)C(C)C)n3)C2)C(C)(C)C)cc1 (stereo not shown); tested on = 22Rv1; test = RNA-seq, item: TNFSF4 mRNA; conditions = concentration not given; scale = reference: DMSO; measurement = log2 fold change; result = -2.64
Compound = CCOc1cncc(-c2ccc(NC(=O)C3(c4ccnc(NS(=O)(=O)C5CC5)n4)CCOCC3)nc2)n1; tested on = MM.1R; test = cell growth or viability, ATP luminescence; conditions = 72 h; measurement = IC50; result = 25 nM
Compound = CC(C)c1ccc(N(C)c2ccc3c(c2)OCC[C@H]3CNc2cnccc2C(=O)O)cc1; tested on = NCI-H1734; test = cell growth or viability, ATP luminescence; conditions = 7 days; measurement = IC50; result = ≥ 10000 nM
Compound = CCCC(=O)[O][Pt]([Cl])([Cl])[O]C(=O)CCC.N.N; tested on = A549/DDP cisplatin-resistant; conditions = with: survivin siRNA transfection; scale = reference: non-transfected over transfected; measurement = IC50 fold reduction; result = 1.3 fold
Compound = COc1cc(N2CCN(C(=O)C3CCCN3)CC2)ccc1Nc1ncc(Cl)c(Nc2ccccc2P(C)(C)=O)n1 (stereo not shown); tested on = Ba/F3 EML4-ALK; test = flow cytometry; conditions = concentration not given, 24 h; measurement = early apoptotic cells; result = 7.84% and 7.57% and 7.52%
Compound = COC(=O)c1cc(NC2=NC(=O)C(=Cc3ccc(N(C)C)cc3)S2)ccc1OC(C)=O; tested on = MCF7; test = GC-MS, item: Arachidonic acid; conditions = 1 µM; scale = reference: DMSO; measurement = metabolite level; result = -0.22 fold change
Compound = Cc1ccncc1.[Cl-].[Cl-].[Ru+2].c1cc(-c2ccc3cccnc3n2)nc(-c2ccc3cccnc3n2)c1.c1ccc2cc3nc4c5cccnc5c5ncccc5c4nc3cc2c1; tested on = SK-MEL-28; test = cell viability; conditions = visible light 400-700 nm, 100 J/cm2; measurement = EC50; result = 333 ± 33 nM
Compound = CN(C)c1ccc(-n2cc(COC(=O)[C@]3(C)C=C(C(=O)OC(C)(C)C)C(=O)CC3)nn2)cc1; tested on = HeLa; test = quantitative western blot; conditions = concentration not given, 15 (unit not given), with: EGF; measurement = pRSK/tubulin ratio; result = 0.177
Compound = COc1cc(/C=C2\CNC/C(=C\c3cc(Cl)c(O)c(OC)c3)C2=O)cc(Cl)c1O; tested on = BV-2; test = Western blot; conditions = concentration not given, with: LPS; scale = reference: LPS alone; measurement = Nrf2 protein level; result = increased
Compound = COc1ccccc1-c1ccncc1C(=O)Nc1nnc(OCc2ccc(Cl)cc2)s1; tested on = MDA-MB-436 BRCA1-mutant; conditions = 1.5 µM; measurement = colony count; result = 13 and 12 and 10 and 9 and 15
Compound = O=C(N1CCCC1)n1cc(-c2ccc(-c3ccccc3)cc2)nn1; tested on = mouse T cells; test = N-terminal labelling proteomics, item: UQCRH N-terminal peptides; conditions = 0.001 µM, 6 h; scale = reference: DMSO; measurement = SILAC ratio; result = 1.22
Compound = C=C1C(=O)OC2C1CCC(C)(O)C13C=CC(C)(C21)C1(C3)C(=O)OC2C3C(C)C(=O)CC3C(=C)CC(OC(C)=O)C21 (stereo not shown); tested on = AML12; test = Western blot, item: FoxO1; conditions = concentration not given, with: palmitate/oleate; measurement = total protein level; result = no effect
Compound = COc1ccc(CNc2ccc3c(c2)S(=O)(=O)C=C3)cc1; tested on = U-87 MG spheroids; system = Matrigel invasion; conditions = 1 µM, 3 days; measurement = spheroid area; result = 0.98 ± 0.14 mm²
Compound = Cc1ccc(-n2cc(CSc3nc4ccccc4n3Cc3cn(-c4ccc(C)cc4)nn3)nn2)cc1; tested on = MDA-MB-231; test = MTT; conditions = 125 ppm; measurement = viability; result = 9.26%
Compound = C=C1C(=O)OC2C1CCC(C)(O)C13C=CC(C)(C21)C1(C3)C(=O)OC2C3C(C)=CCC3C(C)(OC(C)=O)CC(O)C21 (stereo not shown); tested on = AML12 mouse hepatocytes; test = lipid accumulation, Nile Red staining; conditions = maximum safe concentration, 24 h, with: palmitic acid/oleic acid; measurement = maximum inhibition; result = 12.3 ± 1.48%
Compound = COc1ccc(NC(=O)c2ccc3[nH]c(-c4ccc(N(C)C)cc4)nc3c2)cn1; tested on = YAPC; test = cell growth, CellTiter-Glo; measurement = GI50; result = 5030 nM
Compound = Cc1cc(NC2CCN(C)CC2)ccc1-c1cc2c(N3CCC[C@H](C(=O)N[C@H](C)c4ccccc4)C3)ncnc2[nH]1; tested on = KARPAS-299; test = cell growth or viability, MTT; conditions = 0.008 µg/mL, 72 h; measurement = inhibition; result = 10.8%
Compound = O=S(=O)(c1ccc2c(c1)OCO2)n1cc(CCCCN2CCC(=C(c3ccc(F)c(F)c3)c3ccc(F)c(F)c3)CC2)nn1; tested on = B16-F10-luc2; test = TMT proteomics, item: ORMDL1; conditions = 5 µM, 2 h; measurement = protein level; result = increased
Compound = CC[C@H]1CN([C@@H](CC)c2ccc(C(F)(F)F)cc2)[C@H](CC)CN1c1nc(=O)n(C)c2ccc(C#N)nc12; tested on = human CD4+ T cells; test = protein phosphorylation, phosphoproteomics, item: CACTIN Ser139 phosphorylation; conditions = 1 h, stimulation 60 min; measurement = EC50; result = 6.02 nM
Compound = C=C1C[C@]2(C(=O)OC)C=C(C(=O)Nc3cccc(C(=O)Nc4ccc(Nc5nccc(-c6cccnc6)n5)c(C)c4)c3)C(=O)[C@H]1C2; tested on = HEK293 AP1 reporter cells; test = AP-1 reporter gene, inhibitor; conditions = 10 µM, 6 h, unit not given, with: PMA; scale = reference: PMA alone; measurement = reporter activity; result = 0.0679
Compound = Cc1cc(NC2CCN(C)CC2)ccc1-c1cc2c(N3CCC[C@H](C(=O)NCc4ccc(OC(F)(F)F)cc4)C3)ncnc2[nH]1; tested on = KARPAS-299; test = cell growth or viability, MTT; conditions = 0.0016 µg/mL, 72 h; measurement = inhibition; result = 56.6%
Compound = O=C(C[Se]C(=O)c1cc2ccccc2s1)Nc1cccc(C(F)(F)F)c1; tested on = NCI60 CNS cancer panel; test = five-dose screen; measurement = GI50; result = 1590 nM
Compound = O=C(C1CCCN(Cc2ccc(Cl)cc2)C1)N1CCCCC1.O=C(O)C(=O)O (stereo not shown); tested on = Trypanosoma cruzi; test = reporter mRNA translation, inhibitor, item: Renilla luciferase mRNA; system = cell-free extract; conditions = concentration not given, test 2; scale = reference: positive over negative control; measurement = translation activity; result = 136% and 105%
Compound = CO[C@@H]1[C@@H](OC(N)=O)[C@@H](O)[C@H](Oc2ccc3c(O)c(NC(=O)c4ccc(O)c(CC=C(C)C)c4)c(=O)oc3c2C)OC1(C)C; tested on = HCT-116 BRCA2 wild-type; conditions = 75 µM, replicate B; scale = reference: untreated; measurement = colony survival; result = 84.1%
Compound = COc1ccc(Br)c2c1OC1=C(C(=O)CCC1)C2c1c[nH]c2ccccc12 (stereo not shown); tested on = 3T3-L1; test = cell growth or viability, MTT; conditions = 72 h; measurement = IC20; result = 51.5 µg/mL (≈ 121 µM)
Compound = O=CCNCCOn1c(=O)n(OCCNCCO)c(=O)n(OCCNCCOn2c(=O)n(OCCNCCO)c(=O)n(OCCNCCO)c2=O)c1=O; tested on = A549; test = cell growth or viability, MTT; conditions = 12.5 µg/mL, 72 h; measurement = viability; result = 54.9%
Compound = C=CC(=O)N1[C@@H](c2ccc3c(c2)OCO3)c2[nH]c3ccccc3c2C[C@H]1C(=O)NC1CC1; tested on = rat DRG neurons; conditions = 0.1235 µM, 48 h, with: vincristine 40 nM; measurement = neuron degeneration; result = 83.9% and 80.9%
Compound = Cc1cc(Cl)cc(-c2ccnc3cc(CN4C(=O)C5C(C4=O)C5(C)C)sc23)c1C[C@@H]1CNCCO1 (stereo partly shown); tested on = CHP-212 parental (wild-type USP7); test = PI flow cytometry; conditions = 0.1 µM, 24 h; measurement = cells in G2/M phase; result = 20.2% and 18.2% and 21.4%
Compound = O=C(NCc1cn(-c2ccccc2)nc1-c1ccccc1)c1cc([N+](=O)[O-])cc([N+](=O)[O-])c1; tested on = Trypanosoma cruzi; test = reporter mRNA translation, inhibitor, item: Renilla luciferase mRNA; system = cell-free extract; conditions = concentration not given, test 2; scale = reference: positive over negative control; measurement = translation activity; result = 82.8%
Compound = [BH3-][P+]1(c2ccccc2)CCCCC1; tested on = PC-3; test = ELISA; conditions = concentration not given, at IC50; scale = reference: untreated; measurement = IL-6 reduction; result = 47.6%
Compound = CCN(CC)CC(=O)Nc1cccc(-n2cc(-c3ccc4ccc(-c5cn(-c6cccc(NC(=O)CN(CC)CC)c6)nn5)cc4c3)nn2)c1; tested on = RCC4; test = PCR angiogenesis array, item: CXCL5; conditions = 5 x IC50, 4 h, normoxia; scale = reference: untreated; measurement = fold regulation; result = -1.31
